Results pooled from the literature.
Lines come from different studies, so protocols differ.
Route: oral

| SMILES | test system | setting | how to read | endpoint | value |
| --- | --- | --- | --- | --- | --- |
| CC(C)(Sc1ccncc1-c1ccc(C#N)c2ccccc12)C(=O)O | human, male, plasma | 10 mg, together with: allopurinol 300 mg | relative to: combination over alone | AUC(0-24) ratio | 95.9% |
| O=c1[nH]c(=O)c(Cc2cccc(C(F)(F)F)c2)c([C@H]2CC[C@H](c3ccccc3)CC2)[nH]1 | human, plasma | 450 mg once daily, day 1, geometric mean | – | AUC(0-24) | 2940 ng·h/mL |
| CC#C[C@]1(O)CC[C@H]2[C@@H]3CCC4=CC(=O)CCC4=C3[C@@H](c3ccc(N(C)C)cc3)C[C@@]21C | human, both sexes, plasma | 600 mg, day 17, together with: ketoconazole | relative to: 1200 mg alone over reference | AUC(0-24) geometric mean ratio | 87% |
| O=c1[nH]c(=O)c2c[nH]nc2[nH]1 | human, male, plasma | 10 mg, together with: allopurinol 300 mg | relative to: combination over alone | AUC(0-24) ratio | 61.8% |
| COc1ccc(-c2c(Nc3ccccn3)[nH]c3c(C4=CCCCC4)c(-c4ccccc4)nn3c2=O)cc1 | human, plasma | 200 mg twice daily, cycle 1 day 15, multiple dosing, geometric mean | – | AUC(0-24) at steady state | 244000 ng·h/mL |
| COc1cccc(-c2ccc(NC(=O)C3=C(C(=O)O)CCC3)c(F)c2)c1 | male healthy human, plasma | 50 mg daily, day 13-14, all subjects | relative to: day 0-1 | AUC(0-24) accumulation ratio | 2.05 |
| O=C(c1ccc(F)c(F)c1Nc1ccc(I)cc1F)N1CC(O)([C@@H]2CCCCN2)C1 | human, expansion cohort, plasma | 1.0 mg/kg, geometric mean | – | AUC(0-24) at steady state | 1400 ng·h/mL |
| CC(C)(Sc1ccncc1-c1ccc(C#N)c2ccccc12)C(=O)O | human, male, Japanese, plasma | 10 mg, day 6, fed, single dose | – | AUC(0-24) | 195 ng·h/mL |
| CC(C)[C@@H](CS(=O)(=O)C(C)C)N1C(=O)[C@@](C)(CC(=O)O)C[C@H](c2cccc(Cl)c2)[C@H]1c1ccc(Cl)cc1 | healthy human | 60 mg single dose, new tablet, fasted | – | AUC(0-24) | 2180 ng·h/mL |
| CCS(=O)(=O)N1CC(CC#N)(n2cc(-c3ncnc4[nH]ccc34)cn2)C1 | healthy Chinese human subjects, plasma | 2 mg, single dose, mean | – | AUC(0-24) | 133 ng·h/mL |
| C=CC(=O)N1CCC(CNc2ncnc(N)c2-c2ccc(Oc3ccccc3)cc2)CC1 | healthy male human, plasma | 75 mg | relative to: compound over total radioactivity | AUC(0-24) ratio | 13% |
